Experimental data pooled from the literature.
Compare with care: the assays were run in different laboratories. Several values in a cell are separate wells, animals, samples, runs or records. ± marks the error that the study gave.

Compound | assay | system | setting | CL/F
N#CN1C[C@H](n2nc(-c3ccc(Oc4ccc(Cl)cn4)cc3)c(C(N)=O)c2N)CCC12CC2 |  | human fed | oral, 600 mg | 34.8 ± 18.6 L/h
CCN1[C@@H](C(=O)NC23CCC(C(=O)O)(CC2)CC3)[C@H](c2cccc(Cl)c2F)[C@]2(C(=O)Nc3cc(Cl)ccc32)C12CCCCC2 |  | human | oral, single dose, mean across doses | 4.99 to 10 L/h
C[C@@H]1CCO[C@H]2Cn3cc(C(=O)NCc4ccc(F)cc4F)c(=O)c(O)c3C(=O)N12 |  | human, normal renal function | oral, steady state, fixed-dose combination | 0.7 L/h
C=CC(=O)NC1CCN(c2ncc3ncnc(Nc4ccc(Oc5ccc6c(c5)ncn6C)c(C)c4)c3n2)CC1 |  | human, plasma | oral, 30 mg single dose, fed, geometric mean | 13 L/h
CN1C(=O)[C@@H](NC(=O)c2nnc(Cc3ccccc3)[nH]2)COc2cccnc21 |  | healthy human, fasted, plasma | oral, 400 mg single dose, geometric mean | 6.96 L/h
[H]/N=C(/N)c1ccc(NCc2nc3cc(C(=O)N(CCC(=O)O)c4ccccn4)ccc3n2C)cc1 |  | human, plasma | 75 mg, alone, geometric mean | 144 L/h
CNC(=O)n1ccc2cc(Oc3ccnc(NC(=O)c4ccc(C5CCN(CCO)CC5)cc4)c3)c(OCCOC)cc21 |  | healthy human, plasma | oral, 35 mg, geometric mean, with: rabeprazole 20 mg | 299 L/h
CCN(CCO)CCCC(C)Nc1ccnc2cc(Cl)ccc12 (stereo not drawn) |  | human, whole blood | oral, 800 mg | 7.48 L/h and 6.24 L/h
CCCOc1ccc(NC(=O)CN2CCN(C)CC2)cc1-c1nc(CC)c(CC)c(=O)[nH]1 |  | human, fasting, plasma | oral, 10 mg, with: placebo | 17.9 ± 2.8 L/h
Cn1nnc2c(C(N)=O)ncn2c1=O |  | human patients, plasma | oral, 20 mg/m2, day 5, dose level DL2, median, with: talazoparib 400 µg/m2 | 6.4 L/h/m2
C[C@@H](Oc1cc(-c2cnn(C3CCNCC3)c2)cnc1N)c1c(Cl)ccc(F)c1Cl |  | human patients, plasma | oral, cycle 2 day 1, geometric mean, with: avelumab | 91 L/h
COc1ccc([C@@H]2CN(C(=O)[C@@H](O)CO)C[C@@]2(C)[C@@H](C)O)cc1OC1CN(c2ccc(C)cn2)C1 |  | healthy human | oral, 20 mg | 4.22 L/h
CCN1CCN(Cc2ccc(Nc3ncc(F)c(-c4cc(F)c5nc(C)n(C(C)C)c5c4)n3)nc2)CC1 |  | fasted healthy human subjects | oral, 150 mg, tablet | 48.2 L/h
[H]/N=C(/N)c1ccc(NCc2nc3cc(C(=O)N(CCC(=O)O)c4ccccn4)ccc3n2C)cc1 |  | healthy human subjects, plasma | oral, 150 mg, dabigatran etexilate, arithmetic mean, with: fruquintinib 5 mg | 193 L/h
Cn1c(=O)oc2ccc(-c3ccc(C[C@@H](C#N)NC(=O)[C@@H]4CNCCCO4)cc3)cc21 |  | human, moderate renal impairment, plasma | oral, 25 mg single dose, mean | 6.09 L/h
CN(C)CCC[C@@]1(c2ccc(F)cc2)OCc2cc(C#N)ccc21 |  | human | oral | 11.5 L/h
C#Cc1cccc(Nc2ncnc3cc(OCCOC)c(OCCOC)cc23)c1 |  | human patients |  | ~7 L/h
Nc1nc2cccc(-c3ccc(CN4CCS(=O)(=O)CC4)cc3)n2n1 | population PK model | human, plasma | oral | 2.5 L/h
CC(=O)N(C)[C@H]1CCN(C(=O)c2cnc3c(c2)C[C@](C)(c2ccc(F)cc2)N3)C1 |  | human, male, plasma | oral, 60 mg once daily, steady state, geometric mean | 18.5 L/h
CC1(C)CC[C@]2(NC(=O)C(C)(F)F)CC[C@]3(C)[C@H](C(=O)C=C4[C@@]5(C)C=C(C#N)C(=O)C(C)(C)[C@@H]5CC[C@]43C)[C@@H]2C1 |  | human | 150 mg, single dose alone | 86.7 L/h
CCn1cc(C(=O)N2CCOCC2)c(=O)c2cc(NC3Cc4ccccc4C3)cnc21 |  | human, fed | oral suspension, 300 mg/day twice daily, day 8, arithmetic mean | 31.2 L/h

Compound | assay | system | setting | CL/F
C[C@H](Oc1ccc(Br)cc1-c1ccon1)C(=O)O |  | healthy male humans, plasma | oral, 600 mg once daily, day 10 | 5.1 L/h
CC(C)c1nc(N(C)S(C)(=O)=O)nc(-c2ccc(F)cc2)c1/C=C/[C@@H](O)C[C@@H](O)CC(=O)O |  | healthy human subjects, plasma | oral, 10 mg, arithmetic mean, with: none | 291 L/h
C=C[C@@H]1C[C@]1(NC(=O)[C@@H]1C[C@@H](Oc2ncc(OC)c3ccc(Cl)cc23)CN1C(=O)[C@@H](NC(=O)OC(C)(C)C)C(C)(C)C)C(=O)NS(=O)(=O)C1CC1 | population PK full model | human |  | 61.6 L/h
Cc1ccc(C)c(OCCCC(C)(C)C(=O)O)c1 |  | human | oral, dose not given, before lopinavir/ritonavir, geometric mean | 5.8 L/h
COC(=O)N[C@@H](C)CNc1nccc(-c2cn(C(C)C)nc2-c2cc(Cl)cc(NS(C)(=O)=O)c2F)n1 |  | human, plasma | oral, 50 mg, alone, posaconazole study | 26 L/h
C#C[C@]1(CO)O[C@@H](n2cnc3c(N)nc(F)nc32)C[C@@H]1O |  | human, plasma | oral, 30 mg, single dose, geometric mean | 26.7 L/h
CCCn1cc(C)c2c(=O)[nH]c(-c3cc(S(=O)(=O)N4CCN(CC)CC4)ccc3OCC)nc21 |  | human | oral, 100 mg, with: alcoholic beverage 0.5 g/kg | 459 ± 260 L/h
C[C@@H](Oc1ccc(S(C)(=O)=O)cc1C(=O)N1C[C@@H]2C[C@]2(c2cc(C(F)(F)F)on2)C1)C(F)(F)F |  | healthy human volunteers, fed | oral, 10 mg single, geometric mean | 4.39 L/h
CC#CC(=O)N1CC[C@@H](n2cc(-c3ccc(Oc4c(F)cccc4F)cc3)c3c(N)n[nH]c(=O)c32)C1 |  | human patients | 100 to 300 mg, monotherapy | 55.4 L/h
CC1(COc2ccc3c(c2)ncn3-c2ccc3cccc(N4CCC(N)CC4)c3n2)COC1 |  | human patients, recurrent/progressive HGG or DIPG, serum | oral, 100 mg/m^2, day 1, median | 56.4 L/h/m²
C[C@H]1Oc2cc(cnc2N)-c2c(nn(C)c2C#N)CN(C)C(=O)c2ccc(F)cc21 |  | human patients, plasma | oral, cycle 2 day 1, geometric mean, with: avelumab | 17 L/h
NC(=S)NN=Cc1ncccc1N |  | human, plasma | intravenous, 50 mg, geometric mean | 62.1 L/h
C[C@@H](Cn1ccc(-c2ccc(C#N)c(Cl)c2)n1)NC(=O)c1cc([C@@H](C)O)[nH]n1 |  | human, fasted, plasma | oral tablet, 300 mg, geometric mean | 62 L/h
Cn1cncc1[C@@](N)(c1ccc(Cl)cc1)c1ccc2c(c1)c(-c1cccc(Cl)c1)cc(=O)n2C |  | human, female, plasma | oral, across dose levels | 632 mL/min/m²
Cc1ncnc2c1ccn2[C@@H]1C[C@H](Oc2cc(C(F)F)c(F)c3c2CNCC3)[C@@H](O)[C@H]1O |  | human, plasma | 8 mg once daily | 11.5 L/h and 5.15 L/h
O=C(O)CCC(=O)O.[2H]C([2H])([2H])Oc1cc(C)c2[nH]ccc2c1CN1CC[C@@H](C2CC2)C[C@H]1c1ccc(C(=O)O)cc1 | LC-MS/MS, mean | human, plasma | 50 mg, single dose, fasting | 1.55 L/h
Cn1cc(-c2cn3nccc3c(-c3cnn([C@]4(CC#N)C[C@@H](C#N)C4)c3)n2)cn1 |  | healthy human | 400 mg once daily | 55.6 L/h
C[C@@H](Oc1ccc(S(C)(=O)=O)cc1C(=O)N1C[C@@H]2C[C@]2(c2cc(C(F)(F)F)on2)C1)C(F)(F)F |  | healthy young humans | oral, 25 mg single dose | 3.84 L/h
C[C@@H](N)c1cc(Cl)ccc1Cn1c(=S)[nH]c(=O)c2[nH]ccc21 |  | human, normal renal function, plasma | oral, 2.5 mg, geometric mean, single dose | 25.6 L/h
N#Cc1ccc2c(c1)[C@H]1CCCN(C(=O)c3ccc4[nH]cnc4c3)[C@H]1C2 |  | human | 20 mg once daily, day 1 | 2.93 L/h
C[C@H]1O[C@@H](O[C@H]2[C@@H](O)C[C@H](O[C@H]3[C@@H](O)C[C@H](O[C@H]4CC[C@@]5(C)[C@H](CC[C@@H]6[C@@H]5C[C@@H](O)[C@]5(C)[C@@H](C7=CC(=O)OC7)CC[C@]65O)C4)O[C@@H]3C)O[C@@H]2C)C[C@H](O)[C@@H]1O |  | human | oral, substrate with omaveloxolone, with: omaveloxolone once daily | 12.5 L/h

For quick reference, copied from above:
Compound | assay | system | setting | CL/F
CCN1[C@@H](C(=O)NC23CCC(C(=O)O)(CC2)CC3)[C@H](c2cccc(Cl)c2F)[C@]2(C(=O)Nc3cc(Cl)ccc32)C12CCCCC2 |  | human | oral, single dose, mean across doses | 4.99 to 10 L/h
C[C@@H]1CCO[C@H]2Cn3cc(C(=O)NCc4ccc(F)cc4F)c(=O)c(O)c3C(=O)N12 |  | human, normal renal function | oral, steady state, fixed-dose combination | 0.7 L/h
C=CC(=O)NC1CCN(c2ncc3ncnc(Nc4ccc(Oc5ccc6c(c5)ncn6C)c(C)c4)c3n2)CC1 |  | human, plasma | oral, 30 mg single dose, fed, geometric mean | 13 L/h
CN1C(=O)[C@@H](NC(=O)c2nnc(Cc3ccccc3)[nH]2)COc2cccnc21 |  | healthy human, fasted, plasma | oral, 400 mg single dose, geometric mean | 6.96 L/h
[H]/N=C(/N)c1ccc(NCc2nc3cc(C(=O)N(CCC(=O)O)c4ccccn4)ccc3n2C)cc1 |  | human, plasma | 75 mg, alone, geometric mean | 144 L/h
